# Results from different studies.
# Protocols differ between the studies behind these lines. Several values in a cell are separate wells, animals, samples, runs or records. Numbers after ± are the reported error.
# Nuclear receptor subfamily 1 group I member 3: Nuclear receptor subfamily 1 group I member 3 (Homo sapiens, UniProt Q14994)
# UniProt Q14994, sequence (whole entry, looked up): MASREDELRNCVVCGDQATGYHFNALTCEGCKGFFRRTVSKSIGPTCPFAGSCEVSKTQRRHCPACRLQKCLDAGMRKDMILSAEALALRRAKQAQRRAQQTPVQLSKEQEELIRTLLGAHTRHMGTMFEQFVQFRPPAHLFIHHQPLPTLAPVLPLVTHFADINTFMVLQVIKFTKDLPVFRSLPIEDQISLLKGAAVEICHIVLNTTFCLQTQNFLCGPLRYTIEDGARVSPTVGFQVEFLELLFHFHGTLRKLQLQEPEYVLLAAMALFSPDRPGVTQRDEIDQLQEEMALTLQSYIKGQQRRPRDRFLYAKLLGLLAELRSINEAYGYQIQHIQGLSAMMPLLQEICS
# ABCB1: ATP-dependent translocase ABCB1 (ABCB1, Homo sapiens, UniProt P08183)
# Cytochrome P450 2A13: Cytochrome P450 2A13 (Homo sapiens, UniProt Q16696)
# UniProt Q16696, sequence (whole entry, looked up): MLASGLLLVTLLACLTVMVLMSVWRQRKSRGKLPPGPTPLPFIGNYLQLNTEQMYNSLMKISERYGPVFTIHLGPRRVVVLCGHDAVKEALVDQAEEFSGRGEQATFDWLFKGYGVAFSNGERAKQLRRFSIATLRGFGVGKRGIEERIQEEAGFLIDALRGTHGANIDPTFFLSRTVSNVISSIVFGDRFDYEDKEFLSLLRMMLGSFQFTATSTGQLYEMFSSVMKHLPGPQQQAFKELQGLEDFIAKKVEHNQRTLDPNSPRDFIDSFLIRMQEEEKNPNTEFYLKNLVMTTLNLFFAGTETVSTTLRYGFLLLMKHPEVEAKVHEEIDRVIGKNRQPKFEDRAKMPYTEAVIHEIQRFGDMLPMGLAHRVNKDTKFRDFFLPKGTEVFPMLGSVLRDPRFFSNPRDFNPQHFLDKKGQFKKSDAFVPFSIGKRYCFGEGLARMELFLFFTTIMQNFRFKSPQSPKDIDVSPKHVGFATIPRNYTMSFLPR
# UniProt Q9H3G5, sequence (whole entry, looked up): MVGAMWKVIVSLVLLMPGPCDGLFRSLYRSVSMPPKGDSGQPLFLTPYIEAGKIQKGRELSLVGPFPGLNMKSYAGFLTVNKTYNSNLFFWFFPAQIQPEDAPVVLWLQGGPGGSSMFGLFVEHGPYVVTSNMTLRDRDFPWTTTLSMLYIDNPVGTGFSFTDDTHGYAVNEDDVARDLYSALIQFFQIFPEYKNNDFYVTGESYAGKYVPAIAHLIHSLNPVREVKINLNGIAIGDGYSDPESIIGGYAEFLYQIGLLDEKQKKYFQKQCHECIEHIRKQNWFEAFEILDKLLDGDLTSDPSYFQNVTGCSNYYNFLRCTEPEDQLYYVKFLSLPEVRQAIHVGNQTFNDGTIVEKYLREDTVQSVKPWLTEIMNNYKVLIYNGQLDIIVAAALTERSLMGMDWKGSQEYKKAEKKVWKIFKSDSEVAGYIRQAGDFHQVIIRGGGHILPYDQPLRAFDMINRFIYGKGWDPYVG
# UniProt P22413, sequence (whole entry, looked up): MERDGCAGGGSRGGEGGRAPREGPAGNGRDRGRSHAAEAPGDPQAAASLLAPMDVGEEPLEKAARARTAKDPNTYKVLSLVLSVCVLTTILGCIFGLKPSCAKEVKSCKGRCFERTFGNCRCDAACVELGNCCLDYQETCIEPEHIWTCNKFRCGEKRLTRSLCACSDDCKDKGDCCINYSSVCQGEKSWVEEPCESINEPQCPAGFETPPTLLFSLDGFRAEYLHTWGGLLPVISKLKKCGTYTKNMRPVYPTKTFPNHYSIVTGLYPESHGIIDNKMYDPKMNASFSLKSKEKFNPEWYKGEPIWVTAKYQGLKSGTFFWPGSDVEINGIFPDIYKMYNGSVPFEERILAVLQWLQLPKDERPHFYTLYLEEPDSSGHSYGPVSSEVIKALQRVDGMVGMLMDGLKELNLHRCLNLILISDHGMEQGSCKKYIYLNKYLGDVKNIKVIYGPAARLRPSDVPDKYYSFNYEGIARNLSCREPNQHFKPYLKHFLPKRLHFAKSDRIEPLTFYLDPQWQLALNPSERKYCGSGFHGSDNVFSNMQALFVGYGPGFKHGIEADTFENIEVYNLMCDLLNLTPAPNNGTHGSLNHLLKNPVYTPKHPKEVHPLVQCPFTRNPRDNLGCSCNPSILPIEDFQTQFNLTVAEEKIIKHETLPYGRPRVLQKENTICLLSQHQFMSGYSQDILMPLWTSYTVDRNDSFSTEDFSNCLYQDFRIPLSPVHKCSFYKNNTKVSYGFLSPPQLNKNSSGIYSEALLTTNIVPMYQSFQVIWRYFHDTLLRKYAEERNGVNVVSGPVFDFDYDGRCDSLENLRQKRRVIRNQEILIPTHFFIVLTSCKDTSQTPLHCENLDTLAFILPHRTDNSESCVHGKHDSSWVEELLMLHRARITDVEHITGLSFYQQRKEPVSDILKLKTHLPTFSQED
# UniProt Q9UPE1, sequence (whole entry, looked up): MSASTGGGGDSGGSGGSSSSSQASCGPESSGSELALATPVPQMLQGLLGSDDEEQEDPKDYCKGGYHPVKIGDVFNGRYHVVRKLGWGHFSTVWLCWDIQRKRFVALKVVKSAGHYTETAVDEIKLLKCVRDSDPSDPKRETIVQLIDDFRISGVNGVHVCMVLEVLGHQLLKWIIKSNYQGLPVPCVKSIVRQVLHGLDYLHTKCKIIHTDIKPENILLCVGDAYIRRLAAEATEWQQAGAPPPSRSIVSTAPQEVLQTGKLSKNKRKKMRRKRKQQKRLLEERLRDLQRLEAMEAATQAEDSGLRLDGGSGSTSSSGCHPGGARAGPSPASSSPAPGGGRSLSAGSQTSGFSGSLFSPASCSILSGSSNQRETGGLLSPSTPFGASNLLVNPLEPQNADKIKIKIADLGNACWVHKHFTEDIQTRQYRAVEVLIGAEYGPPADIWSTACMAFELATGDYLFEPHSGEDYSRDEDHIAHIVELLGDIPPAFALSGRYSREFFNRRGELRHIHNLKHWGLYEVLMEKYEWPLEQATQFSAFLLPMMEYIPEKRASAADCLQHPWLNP
# UniProt Q9UKP6, sequence (whole entry, looked up): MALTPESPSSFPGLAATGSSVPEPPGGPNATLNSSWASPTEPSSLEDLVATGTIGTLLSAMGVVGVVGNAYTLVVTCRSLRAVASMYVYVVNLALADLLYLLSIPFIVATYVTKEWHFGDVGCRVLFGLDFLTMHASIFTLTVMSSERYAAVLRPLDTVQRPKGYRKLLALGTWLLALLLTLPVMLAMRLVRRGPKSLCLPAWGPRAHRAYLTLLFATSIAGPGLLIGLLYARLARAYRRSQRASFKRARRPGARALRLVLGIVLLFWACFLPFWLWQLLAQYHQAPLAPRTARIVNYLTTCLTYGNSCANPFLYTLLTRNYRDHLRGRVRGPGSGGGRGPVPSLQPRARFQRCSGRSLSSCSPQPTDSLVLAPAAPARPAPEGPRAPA
# UniProt P16662, sequence (whole entry, looked up): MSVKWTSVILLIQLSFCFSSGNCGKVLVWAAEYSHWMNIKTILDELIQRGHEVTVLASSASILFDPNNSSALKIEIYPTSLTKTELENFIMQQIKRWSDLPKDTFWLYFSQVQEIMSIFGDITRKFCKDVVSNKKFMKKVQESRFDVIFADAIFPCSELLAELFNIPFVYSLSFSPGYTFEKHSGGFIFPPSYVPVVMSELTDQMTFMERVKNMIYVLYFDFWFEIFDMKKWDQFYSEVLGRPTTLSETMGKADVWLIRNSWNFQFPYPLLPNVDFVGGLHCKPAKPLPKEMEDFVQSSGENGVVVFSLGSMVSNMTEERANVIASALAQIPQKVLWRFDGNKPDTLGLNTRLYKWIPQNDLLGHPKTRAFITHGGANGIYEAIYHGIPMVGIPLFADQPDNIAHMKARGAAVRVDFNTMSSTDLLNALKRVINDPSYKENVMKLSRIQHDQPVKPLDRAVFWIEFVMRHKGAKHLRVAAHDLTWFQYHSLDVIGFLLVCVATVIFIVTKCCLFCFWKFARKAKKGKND
# UniProt P10632, sequence (whole entry, looked up): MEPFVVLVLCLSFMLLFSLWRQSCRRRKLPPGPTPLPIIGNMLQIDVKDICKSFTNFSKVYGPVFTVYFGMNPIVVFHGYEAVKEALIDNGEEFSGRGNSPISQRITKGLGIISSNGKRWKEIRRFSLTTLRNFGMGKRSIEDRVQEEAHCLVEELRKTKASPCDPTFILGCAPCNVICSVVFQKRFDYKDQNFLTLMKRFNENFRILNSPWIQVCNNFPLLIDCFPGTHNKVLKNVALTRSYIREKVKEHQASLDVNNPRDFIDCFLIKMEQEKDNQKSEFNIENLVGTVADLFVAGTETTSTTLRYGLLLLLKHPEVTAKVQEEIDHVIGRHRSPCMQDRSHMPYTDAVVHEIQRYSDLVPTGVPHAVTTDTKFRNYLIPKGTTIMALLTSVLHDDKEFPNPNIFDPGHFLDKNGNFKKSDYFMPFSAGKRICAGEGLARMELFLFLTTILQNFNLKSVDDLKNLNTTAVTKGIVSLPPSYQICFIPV
# UniProt P27487, sequence (whole entry, looked up): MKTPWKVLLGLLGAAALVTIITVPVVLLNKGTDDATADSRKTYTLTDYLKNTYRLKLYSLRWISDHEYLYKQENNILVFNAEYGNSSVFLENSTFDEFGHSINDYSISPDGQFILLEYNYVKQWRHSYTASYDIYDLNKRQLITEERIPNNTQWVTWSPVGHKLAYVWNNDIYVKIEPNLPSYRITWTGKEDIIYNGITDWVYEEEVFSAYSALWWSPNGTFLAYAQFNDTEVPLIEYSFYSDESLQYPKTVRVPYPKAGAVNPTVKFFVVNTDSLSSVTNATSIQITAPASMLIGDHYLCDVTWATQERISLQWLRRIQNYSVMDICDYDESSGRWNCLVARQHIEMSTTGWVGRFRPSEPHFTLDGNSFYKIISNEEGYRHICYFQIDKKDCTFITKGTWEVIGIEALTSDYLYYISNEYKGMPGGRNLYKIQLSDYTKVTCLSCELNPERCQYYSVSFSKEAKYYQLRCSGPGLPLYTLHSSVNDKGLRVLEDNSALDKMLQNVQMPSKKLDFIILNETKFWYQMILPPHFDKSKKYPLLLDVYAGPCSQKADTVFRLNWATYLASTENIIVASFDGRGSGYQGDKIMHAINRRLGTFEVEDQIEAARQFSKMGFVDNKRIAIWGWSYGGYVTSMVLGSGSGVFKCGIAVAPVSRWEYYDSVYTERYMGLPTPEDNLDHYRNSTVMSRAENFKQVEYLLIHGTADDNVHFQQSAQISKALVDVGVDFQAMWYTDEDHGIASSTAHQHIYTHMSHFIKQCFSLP
Structure (SMILES),tested on,assay,system,conditions,how to read,quantity,value
COc1ccc(N2C(=O)N(c3c(C)cccc3Cl)Cc3cnc(Nc4ccc(C5CCN(C)CC5)cc4OC)nc32)nc1,"SRPK3 (Homo sapiens, UniProt Q9UPE1)","kinase activity, inhibitor",,"0.5 µM, MSSK1",,inhibition,-0.375%
Cc1cc2nc3c(=O)[nH]c(=O)nc-3n(C[C@H](O)[C@H](O)[C@H](O)COP(=O)(O)O)c2cc1C,"Iodotyrosine deiodinase (Haliscomenobacter hydrossis, UniProt F4KU78, R38Q)","bound cofactor redox, redox titration",,"pH 7.4, 25 °C, anaerobic, no substrate",,midpoint potential,-208 ± 6 mV
Clc1ccc(-c2ccccc2Cl)cc1,Nuclear receptor subfamily 1 group I member 3,"CYP2B6 mRNA induction, activator, qRT-PCR",differentiated HepaRG,24 h,reference: phenobarbital,EC25,9 µM
CC[C@H](C)[C@H](NC(=O)[C@H](Cc1ccccc1)NC(=O)[C@H](CCC(=O)O)NC(=O)[C@H](CCCCN)NC(=O)[C@H](C)NC(=O)[C@H](C)NC(=O)[C@H](CCC(N)=O)NC(=O)CNC(=O)[C@H](CCC(=O)O)NC(=O)[C@H](CC(C)C)NC(=O)[C@H](Cc1ccc(O)cc1)NC(=O)[C@H](CO)NC(=O)[C@H](CO)NC(=O)[C@@H](NC(=O)[C@H](CC(=O)O)NC(=O)[C@H](CO)NC(=O)[C@@H](NC(=O)[C@H](Cc1ccccc1)NC(=O)[C@@H](NC(=O)CNC(=O)[C@H](CCC(=O)O)NC(=O)[C@H](C)NC(=O)N(N)Cc1c[nH]cn1)[C@@H](C)O)[C@@H](C)O)C(C)C)C(=O)N[C@@H](C)C(=O)N[C@@H](Cc1c[nH]c2ccccc12)C(=O)N[C@@H](CC(C)C)C(=O)N[C@H](C(=O)N[C@@H](CCCNC(=N)N)C(=O)NCC(=O)N[C@@H](CCCNC(=N)N)C(=O)NCC(=O)O)C(C)C,"DPP4 (Homo sapiens, UniProt P27487)",HPLC-UV,Tris-HCl,"0.1 mM, 8 h, pH 7.4, 37 °C, together with: DPP4 16 nM",,remaining peptide,100%
Cn1nccc1[C@]1(CNC(=O)c2ccc(F)c(F)c2-c2ccc(C(F)(F)F)cc2)NC(=O)NC1=O,"Cytochrome P450 2C8 (CYP2C8, Homo sapiens, UniProt P10632)",,human liver microsomes,together with: amodiaquine,no inhibition up to value,IC50,> 20 µM
COc1cc2c(Oc3ccc4[nH]c(C)cc4c3F)ccnc2cc1OCC1(N)CC1,,,paediatric recurrent refractory sarcoma,8 mg,,grade 3 Thrombocytopenia,0%
C[C@@H]1CCN(C(=O)CC#N)C[C@@H]1N(C)c1ncnc2[nH]ccc12,ABCB1,"transport, inhibitor",,"100 µM, 5 (unit not given), pH 7, together with: NMN",,inhibition,36%
C#CCOc1ccccc1-c1ccccc1,Cytochrome P450 2A13,"enzyme activity, inhibitor",,together with: 10 µM coumarin,,IC50,> 80 µM
CC[C@H](C)[C@H](NC(=O)[C@H](C)NC(=O)[C@H](CCCCN)NC(=O)[C@H](CC(C)C)NC(=O)[C@H](C)NC(=O)[C@@H](NC(=O)[C@H](Cc1c[nH]cn1)NC(=O)[C@H](CC(C)C)NC(=O)[C@@H](NC(=O)[C@@H](NC(=O)[C@H](CCCCN)NC(=O)[C@H](C)NC(=O)[C@H](C)NC(=O)[C@H](CO)NC(=O)[C@H](CCCCN)NC(=O)[C@H](Cc1ccccc1)NC(=O)[C@@H](NC(=O)[C@H](CCCCN)NC(=O)[C@H](CC(C)C)NC(=O)[C@H](Cc1ccccc1)NC(=O)[C@H](CO)NC(=O)[C@H](CCCCN)NC(=O)[C@H](Cc1c[nH]c2ccccc12)NC(=O)[C@H](CCCCN)NC(C)=O)[C@@H](C)O)[C@@H](C)O)C(C)C)[C@@H](C)O)C(=O)N[C@@H](CO)C(=O)N[C@@H](CO)C(N)=O,Enterococcus faecalis,,ATCC 29212,,,MIC50,32 µg/mL
C[C@H]1CN(c2n[nH]c3nc(N[C@H]4CC[C@H](NS(=O)(=O)CCC(F)(F)F)CC4)ncc23)CCO1,"Echinoderm microtubule-associated protein-like 4 (Homo sapiens, UniProt Q9HC35)","Kinobeads competition, item: EML4",,"0.16 µM, unit not given",reference: vehicle,remaining binding,1.07
O=S(=O)(NCCNC/C=C/c1ccc(Br)cc1)c1cccc2cnccc12,PKA,inhibitor,mouse zygotes,"20 µM, injection, hCG, 48 h post, early embryonic development",,dead embryos,0% and 5%
C#CCOCc1ccc(-c2ccccc2)cc1,Cytochrome P450 2A13,"enzyme activity, inhibitor",,together with: 10 µM coumarin,,IC50,> 80 µM
CCCc1nn(C)c2c(=O)[nH]c(-c3cc(S(=O)(=O)N4CCN(C)CC4)ccc3OCC)nc12,ABCB1,"transport, inhibitor",,"100 µM, 5 (unit not given), pH 7, together with: NMN",,inhibition,86.6%
CC(C)CC(=O)OC[C@H]1O[C@@](C#N)(c2ccc3c(N)ncnn23)[C@H](O)[C@@H]1O,ABCB1,,Caco-2,"90 µM, together with: zosuquidar 25 µM",,Papp A to B,0.353 ×10⁻⁶ cm/s
COc1cc2nc(N3CCN(C(=O)c4ccco4)CC3)nc(N)c2cc1OC,ABCB1,"transport, inhibitor",,"100 µM, 5 (unit not given), pH 7, together with: NMN",,inhibition,79.1%
O=C(c1ccc(Cl)cc1)N1CCN2C(=O)N(OC(=O)N3CCOc4ccccc43)C(=O)C2C1 (stereo not drawn),"Probable serine carboxypeptidase CPVL (CPVL, Homo sapiens, UniProt Q9H3G5)",MS-based ABPP,SW-620 conditioned medium,"10 µM, 1 h, 37 °C","reference: compound over DMSO, lower = more inhibition",peptide ratio,1.02 and 1.11 and 1.13
CC[C@H](C)[C@@H]1NC(=O)[C@@H]2CCCN2C(=O)[C@H](CC(C)C)NC(=O)[C@H](CC(C)C)NC(=O)CNC(=O)[C@@H](NC(=O)[C@@H](NC(=O)[C@H](CC(=O)O)NC(=O)CNC(=O)[C@@H](NC(=O)[C@H](C)NC(=O)CNC(=O)[C@H](CCCCN)NC(=O)[C@H](CC(C)C)NC(=O)[C@H](CC(C)C)NC(=O)[C@H](CCCCN)NC(=O)CNC(=O)[C@@H](NC(=O)[C@@H](N)CC(C)C)C(C)C)C(C)C)C(C)C)CSSC[C@@H](C(=O)O)NC1=O,,"RNA-seq, item: Cxcr4","mouse, traumatic brain injury model, frontal cortex and hippocampus",dose not given,reference: TBI alone,log2 fold change,-1.3
O=C1c2c(O)c(=O)ccn2N([C@@H]2c3ccccc3SCc3c2ccc(F)c3F)[C@@H]2COCCN12,,,"BALB/c mice, plasma","oral, 5 mg/kg baloxavir marboxil, 4 h",,plasma concentration,25.7 ng/mL
COc1cc(Nc2ncc(F)c(Nc3ccc4c(n3)NC(=O)C(C)(C)O4)n2)cc(OC)c1OC,"UTS2R (Homo sapiens, UniProt Q9UKP6)",,,,,IC50,> 10 µM
Oc1cc(Cl)c(-c2ccc(Cl)cc2Cl)c(Cl)c1O,cytochrome P450,GC-MS,"Syrian golden hamster, male, liver microsomes","50 µM, 2 h, 37 °C",,metabolite formation,not detected
Nc1nc2c(ncn2[C@@H]2O[C@@H]3COP(O)(=S)O[C@H]4[C@@H](O)[C@H](n5cnc6c(N)ncnc65)O[C@@H]4COP(=O)(S)O[C@@H]2[C@@H]3O)c(=O)[nH]1 (stereo partly drawn),"ENPP1 (Homo sapiens, UniProt P22413)",substrate,,8 h,,degradation,~20%
C#CCOc1ccc2ccccc2c1,Cytochrome P450 2A13,"enzyme activity, inhibitor",,together with: 10 µM coumarin,,IC50,0.4 to 10 µM
CC(C)C[C@@H]1NC(=O)[C@H](CC(C)C)NC(=O)[C@H](Cc2c[nH]c3ccccc23)NC(=O)[C@H](CO)NC(=O)[C@H](Cc2c[nH]c3ccccc23)NC(=O)[C@@H]2CCCN2C(=O)[C@H](CC(C)C)NC(=O)[C@H](Cc2c[nH]cn2)NC(=O)[C@@H]2CCCN2C(=O)[C@H](CC(N)=O)NC(=O)[C@H](C)NC(=O)[C@H](Cc2ccc(O)cc2)NC(=O)[C@H](CS)NC(=O)[C@H](CCCCNC(=O)CN2CCN(CC(=O)O)CCN(CC(=O)O)CCN(CC(=O)O)CC2)NC1=O [lutetium-177 labelled],,,"BALB/c mice female 4T1 tumour, 4T1 tumour","intravenous, 3.7 MBq, 72 h, unblocked",,tumour uptake,5.08 %ID
Clc1cc2c(cc1Cl)Oc1cc(Cl)c(Cl)cc1O2,"Ahr (Rattus norvegicus, UniProt P41738)","reporter gene, agonist, DR-Luc",,,,EC50,2.7 ± 0.3 pM
CC(=O)c1cc2ccc3cccc4ccc(c1)c2c34,Cytochrome P450 2A13,"enzyme activity, inhibitor",,"20 min, pH 7.4",,IC50,< 20 µM
CCOC(=O)c1c(CSc2ccccc2)n(C)c2cc(Br)c(O)c(CN(C)C)c12,ABCB1,"transport, inhibitor",,"100 µM, 5 (unit not given), pH 7, together with: NMN",,inhibition,92.3%
C[C@@H](O)[C@@H](CO)NC(=O)[C@@H](CCCNC(=N)N)NC(=O)[C@@H]1CCCN1C(=O)[C@@H]1CSSC[C@H](NC(=O)[C@H](Cc2ccccc2)NC(=O)CN2CCN(CC(=O)O)CCN(CC(=O)O)CCN(CC(=O)O)CC2)C(=O)N[C@@H](Cc2ccc(O)cc2)C(=O)N[C@@H](Cc2ccccc2)C(=O)N[C@@H](CCC(N)=O)C(=O)N[C@@H](CC(N)=O)C(=O)N1 [gallium-68 labelled],,,"healthy Wistar rat, small intestine","intravenous, 8 MBq, 60 min",,tissue uptake,0.07 %ID/g
Cc1cccc(C)c1OCC(=O)N[C@@H](Cc1ccccc1)[C@@H](O)C[C@H](Cc1ccccc1)NC(=O)[C@H](C(C)C)N1CCCNC1=O,ABCB1,"transport activity, inhibitor",,"100 µM, 5 (unit not given), pH 7",,inhibition,90.8%
CC[C@H](C)[C@H](NC(=O)[C@H](Cc1ccccc1)NC(=O)[C@H](CCC(=O)O)NC(=O)[C@H](CCCNC(=N)N)NC(=O)[C@H](C)NC(=O)[C@H](C)NC(=O)[C@H](CCC(N)=O)NC(=O)[C@H](CCC(=O)O)NC(=O)[C@H](CCC(=O)O)NC(=O)[C@H](CC(C)C)NC(=O)[C@H](Cc1ccc(O)cc1)NC(=O)[C@H](CO)NC(=O)[C@H](CO)NC(=O)[C@@H](NC(=O)[C@H](CC(=O)O)NC(=O)[C@H](CO)NC(=O)[C@@H](NC(=O)[C@H](Cc1ccccc1)NC(=O)[C@@H](NC(=O)CNC(=O)[C@H](CCC(=O)O)NC(=O)[C@H](C)NC(=O)CCc1c[nH]cn1)[C@@H](C)O)[C@@H](C)O)C(C)C)C(=O)N[C@@H](C)C(=O)N[C@@H](Cc1c[nH]c2ccccc12)C(=O)N[C@@H](CC(C)C)C(=O)N[C@H](C(=O)N[C@@H](CCCNC(=N)N)C(=O)NCC(=O)N[C@@H](CCCNC(=N)N)C(=O)N[C@@H](CCCCNC(=O)COCCOCCNC(=O)COCCOCCNC(=O)CC[C@H](NC(=O)CCCCCCCCCCCCCCCCC(=O)O)C(=O)O)C(=O)NCC(=O)NCC(=O)N[C@@H](CO)C(=O)N[C@@H](CCCCNc1c(NCCCCCN(O)C(=O)CCC(=O)NCCCCCN(O)C(=O)CCC(=O)NCCCCCN(O)C(C)=O)c(=O)c1=O)C(=O)O)C(C)C [zirconium-89 labelled],,ex vivo gamma counting,"rat, duodenum content","subcutaneous, 3 nmol/kg, 4 h, together with: [89Zr]-labelled peptide",,tissue uptake,0.08 %ID/g
NC(=O)c1nc(F)c[nH]c1=O,ABCB1,"transport, inhibitor",,"100 µM, 5 (unit not given), pH 7, together with: NMN",,inhibition,64.4%
C=C1CCC2C(C)(CO)C(=O)CCC2(C)C1C=CC1=CCOC1=O (stereo not drawn),"UGT2B7 (Homo sapiens, UniProt P16662)","AZT glucuronidation, inhibitor",human liver microsomes,together with: zidovudine substrate,,Ki,22 µM
CCS(=O)(=O)N1CC(CC#N)(n2cc(-c3ncnc4[nH]ccc34)cn2)C1,ABCB1,"transport, inhibitor",,"50 µM, together with: NMN",,inhibition,22.3%
Clc1ccc(Cl)c(-c2ccccc2Cl)c1,Nuclear receptor subfamily 1 group I member 3,"CYP2B6 mRNA induction, activator, qRT-PCR",differentiated HepaRG,24 h,reference: phenobarbital,EC25,2 µM

# Excerpt of the above:
Structure (SMILES),tested on,assay,system,conditions,how to read,quantity,value
CCCc1nn(C)c2c(=O)[nH]c(-c3cc(S(=O)(=O)N4CCN(C)CC4)ccc3OCC)nc12,ABCB1,"transport, inhibitor",,"100 µM, 5 (unit not given), pH 7, together with: NMN",,inhibition,86.6%
CC(C)CC(=O)OC[C@H]1O[C@@](C#N)(c2ccc3c(N)ncnn23)[C@H](O)[C@@H]1O,ABCB1,,Caco-2,"90 µM, together with: zosuquidar 25 µM",,Papp A to B,0.353 ×10⁻⁶ cm/s
COc1cc2nc(N3CCN(C(=O)c4ccco4)CC3)nc(N)c2cc1OC,ABCB1,"transport, inhibitor",,"100 µM, 5 (unit not given), pH 7, together with: NMN",,inhibition,79.1%
O=C(c1ccc(Cl)cc1)N1CCN2C(=O)N(OC(=O)N3CCOc4ccccc43)C(=O)C2C1 (stereo not drawn),"Probable serine carboxypeptidase CPVL (CPVL, Homo sapiens, UniProt Q9H3G5)",MS-based ABPP,SW-620 conditioned medium,"10 µM, 1 h, 37 °C","reference: compound over DMSO, lower = more inhibition",peptide ratio,1.02 and 1.11 and 1.13
CC[C@H](C)[C@@H]1NC(=O)[C@@H]2CCCN2C(=O)[C@H](CC(C)C)NC(=O)[C@H](CC(C)C)NC(=O)CNC(=O)[C@@H](NC(=O)[C@@H](NC(=O)[C@H](CC(=O)O)NC(=O)CNC(=O)[C@@H](NC(=O)[C@H](C)NC(=O)CNC(=O)[C@H](CCCCN)NC(=O)[C@H](CC(C)C)NC(=O)[C@H](CC(C)C)NC(=O)[C@H](CCCCN)NC(=O)CNC(=O)[C@@H](NC(=O)[C@@H](N)CC(C)C)C(C)C)C(C)C)C(C)C)CSSC[C@@H](C(=O)O)NC1=O,,"RNA-seq, item: Cxcr4","mouse, traumatic brain injury model, frontal cortex and hippocampus",dose not given,reference: TBI alone,log2 fold change,-1.3
